Assay results gathered from unrelated publications.
Lines come from different studies, so protocols differ. ± marks the error that the study gave.

SMILES	system	setting	endpoint	value
CCOc1ccccc1-n1c(CN2CCNCC2)nc2ccccc2c1=O	C57BL/6 mouse, male, plasma	oral, 6 mg/kg	Tmax	1 h
CCN(C)C(=O)Oc1ccccc1/C=C1\Cc2cc(OC)c(OC)cc2C1=O	male Sprague-Dawley rat, plasma	oral, 100 mg/kg, single dose	Tmax	7.6 h
CC1(C)C(=O)N(c2ccc(C#N)c(C(F)(F)F)c2)C(=S)N1c1ccc(C(=O)O)c(F)c1	human, male, plasma	oral, 160 mg, single dose, after high-fat meal	Tmax	67.6 ± 56.6 h
NC1CCN(C(=O)Oc2ccc(C3CCCC4(C3)OOC3(O4)C4CC5CC(C4)CC3C5)cc2)CC1 (racemic)	male Sprague-Dawley rat, plasma	intravenous, 10 mg/kg	Tmax	0.083 h
C[C@H]1C(=O)O[C@@H]2O[C@@]3(C)CC[C@@H]4[C@@]2(OO3)[C@H]1CC[C@]4(C)O	human	dose not given, day 2	Tmax	2 ± 1.3 h
O=C1NC2(CC2)COc2ncc(F)cc2[C@H]2COCCN2c2ccn3ncc1c3n2	Sprague-Dawley rat, male, kidneys	oral, 20 mg/kg/day, 4 weeks	organ weight	3.2 ± 0.533 g
CCCCCCCCCCCCCCCC(=O)N[C@@H](CCC(=O)NCCOCCOCCC(=O)NCCOCCOCCC(=O)NCCCC[C@H](NC(=O)[C@H](CC(=O)O)NC(=O)[C@H](CC(C)C)NC(=O)[C@H](Cc1ccc(O)cc1)NC(=O)[C@H](CCCCN)NC(=O)[C@H](CO)NC(=O)[C@H](Cc1ccc(O)cc1)NC(=O)[C@H](CC(=O)O)NC(=O)[C@H](CO)NC(=O)[C@@H](NC(=O)[C@H](Cc1ccccc1)NC(=O)[C@@H](NC(=O)CNC(=O)[C@H](CCC(N)=O)NC(=O)[C@@H](CO)NC(=O)[C@@H](N)Cc1c[nH]cn1)[C@@H](C)O)[C@@H](C)O)C(=O)N[C@@H](CCCNC(=N)N)C(=O)N[C@@H](CCCNC(=N)N)C(=O)N[C@@H](C)C(=O)N[C@@H](CCC(N)=O)C(=O)N[C@@H](CC(=O)O)C(=O)N[C@@H](Cc1ccccc1)C(=O)N[C@H](C(=O)N[C@@H](CCC(N)=O)C(=O)N[C@@H](Cc1c[nH]c2ccccc12)C(=O)N[C@@H](CC(C)C)C(=O)N[C@@H](CC(C)C)C(=O)N[C@@H](CC(N)=O)C(=O)N[C@H](C(=O)NCC(=O)NCC(=O)N1CCC[C@H]1C(=O)N[C@@H](CO)C(=O)N[C@@H](CO)C(=O)NCC(=O)N[C@@H](C)C(=O)N1CCC[C@H]1C(=O)N1CCC[C@H]1C(=O)N1CCC[C@H]1C(=O)N[C@@H](CO)C(N)=O)[C@@H](C)O)C(C)C)C(=O)O	rhesus monkey, male, plasma	subcutaneous, 20 µg/kg, day 1, toxicokinetics, median	Tmax	1 h
CN1CCCCC1C(=O)NC(Cc1ccc(-c2ccccc2)cc1)B(O)O (stereo not shown)	rat, plasma	oral, 1 mg/kg	Tmax	0.5 h
CN[C@H](CC(C)C)C(=O)N[C@H]1C(=O)N[C@@H](CC(N)=O)C(=O)N[C@H]2C(=N)N[C@H]3C(=O)N[C@H](C(=O)N[C@H](C(=O)NCCCNC(=N)N)c4cc(O)cc(O)c4-c4cc3ccc4O)[C@H](O)c3ccc(c(Cl)c3)Oc3cc2cc(c3O[C@@H]2O[C@H](CO)[C@@H](O)[C@H](O)[C@H]2O[C@H]2C[C@](C)(NCc3ccc(-c4ccc(Cl)cc4)cc3)[C@H](O)[C@H](C)O2)Oc2ccc(cc2Cl)[C@H]1O	mouse	intravenous, 10 mg/kg	Tmax	0.36 h
CC1(C)C(=O)N(c2ccc(C#N)c(C(F)(F)F)c2)C(=S)N1c1ccc(C(N)=O)c(F)c1	healthy male humans, plasma	oral, 40 mg, fasting, soft capsules	Tmax	216 ± 35.5 h

For quick reference, copied from above:
SMILES	system	setting	endpoint	value
CCOc1ccccc1-n1c(CN2CCNCC2)nc2ccccc2c1=O	C57BL/6 mouse, male, plasma	oral, 6 mg/kg	Tmax	1 h
CCN(C)C(=O)Oc1ccccc1/C=C1\Cc2cc(OC)c(OC)cc2C1=O	male Sprague-Dawley rat, plasma	oral, 100 mg/kg, single dose	Tmax	7.6 h
